Experimental data from different studies.
Protocols differ between the studies behind these lines. Several values in a cell are separate wells, animals, samples, runs or records. ± gives the spread as reported.
MAPK14: Mitogen-activated protein kinase 14 (MAPK14, Homo sapiens, UniProt Q16539)
ALOX5: Polyunsaturated fatty acid 5-lipoxygenase (ALOX5, Homo sapiens, UniProt P09917)
NQO2: Ribosyldihydronicotinamide dehydrogenase [quinone] (NQO2, Homo sapiens, UniProt P16083)

Sequences of proteins named here, by UniProt entry; tags and fusion partners are left off. Residues count along the entry.
UniProt Q16539, whole entry: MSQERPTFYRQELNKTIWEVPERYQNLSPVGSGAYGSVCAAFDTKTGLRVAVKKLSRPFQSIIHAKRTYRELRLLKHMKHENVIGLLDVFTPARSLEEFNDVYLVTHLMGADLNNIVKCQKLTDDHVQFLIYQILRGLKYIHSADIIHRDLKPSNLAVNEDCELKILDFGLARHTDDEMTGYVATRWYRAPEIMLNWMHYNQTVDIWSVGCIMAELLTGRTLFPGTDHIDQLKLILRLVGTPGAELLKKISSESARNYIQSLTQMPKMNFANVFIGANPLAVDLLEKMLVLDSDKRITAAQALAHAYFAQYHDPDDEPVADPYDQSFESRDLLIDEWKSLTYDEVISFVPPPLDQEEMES
UniProt P09917, whole entry: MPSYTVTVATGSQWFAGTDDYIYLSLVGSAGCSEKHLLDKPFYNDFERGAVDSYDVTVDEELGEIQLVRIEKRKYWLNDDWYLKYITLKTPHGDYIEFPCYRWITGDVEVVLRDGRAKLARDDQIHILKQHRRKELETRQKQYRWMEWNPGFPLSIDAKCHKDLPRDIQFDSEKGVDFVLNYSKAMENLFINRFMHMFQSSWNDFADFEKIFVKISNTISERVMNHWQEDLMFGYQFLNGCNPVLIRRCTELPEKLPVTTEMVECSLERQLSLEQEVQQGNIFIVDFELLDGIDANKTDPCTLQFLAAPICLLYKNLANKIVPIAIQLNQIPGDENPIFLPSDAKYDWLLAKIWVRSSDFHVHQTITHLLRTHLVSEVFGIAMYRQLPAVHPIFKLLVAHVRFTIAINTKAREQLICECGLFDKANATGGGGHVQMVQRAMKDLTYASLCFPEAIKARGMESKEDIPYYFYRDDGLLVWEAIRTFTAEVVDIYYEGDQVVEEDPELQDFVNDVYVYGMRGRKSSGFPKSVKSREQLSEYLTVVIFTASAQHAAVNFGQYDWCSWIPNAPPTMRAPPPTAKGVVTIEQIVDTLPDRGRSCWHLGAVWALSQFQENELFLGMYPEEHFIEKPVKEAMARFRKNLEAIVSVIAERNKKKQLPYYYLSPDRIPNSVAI
UniProt P16083, whole entry: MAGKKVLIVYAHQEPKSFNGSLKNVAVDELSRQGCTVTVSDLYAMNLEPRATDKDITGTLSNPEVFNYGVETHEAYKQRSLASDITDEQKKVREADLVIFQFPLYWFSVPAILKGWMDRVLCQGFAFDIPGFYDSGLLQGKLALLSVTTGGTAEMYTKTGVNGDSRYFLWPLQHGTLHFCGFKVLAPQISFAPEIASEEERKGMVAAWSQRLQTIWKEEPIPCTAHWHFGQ
UniProt A0AAA9TD94, 1-1441: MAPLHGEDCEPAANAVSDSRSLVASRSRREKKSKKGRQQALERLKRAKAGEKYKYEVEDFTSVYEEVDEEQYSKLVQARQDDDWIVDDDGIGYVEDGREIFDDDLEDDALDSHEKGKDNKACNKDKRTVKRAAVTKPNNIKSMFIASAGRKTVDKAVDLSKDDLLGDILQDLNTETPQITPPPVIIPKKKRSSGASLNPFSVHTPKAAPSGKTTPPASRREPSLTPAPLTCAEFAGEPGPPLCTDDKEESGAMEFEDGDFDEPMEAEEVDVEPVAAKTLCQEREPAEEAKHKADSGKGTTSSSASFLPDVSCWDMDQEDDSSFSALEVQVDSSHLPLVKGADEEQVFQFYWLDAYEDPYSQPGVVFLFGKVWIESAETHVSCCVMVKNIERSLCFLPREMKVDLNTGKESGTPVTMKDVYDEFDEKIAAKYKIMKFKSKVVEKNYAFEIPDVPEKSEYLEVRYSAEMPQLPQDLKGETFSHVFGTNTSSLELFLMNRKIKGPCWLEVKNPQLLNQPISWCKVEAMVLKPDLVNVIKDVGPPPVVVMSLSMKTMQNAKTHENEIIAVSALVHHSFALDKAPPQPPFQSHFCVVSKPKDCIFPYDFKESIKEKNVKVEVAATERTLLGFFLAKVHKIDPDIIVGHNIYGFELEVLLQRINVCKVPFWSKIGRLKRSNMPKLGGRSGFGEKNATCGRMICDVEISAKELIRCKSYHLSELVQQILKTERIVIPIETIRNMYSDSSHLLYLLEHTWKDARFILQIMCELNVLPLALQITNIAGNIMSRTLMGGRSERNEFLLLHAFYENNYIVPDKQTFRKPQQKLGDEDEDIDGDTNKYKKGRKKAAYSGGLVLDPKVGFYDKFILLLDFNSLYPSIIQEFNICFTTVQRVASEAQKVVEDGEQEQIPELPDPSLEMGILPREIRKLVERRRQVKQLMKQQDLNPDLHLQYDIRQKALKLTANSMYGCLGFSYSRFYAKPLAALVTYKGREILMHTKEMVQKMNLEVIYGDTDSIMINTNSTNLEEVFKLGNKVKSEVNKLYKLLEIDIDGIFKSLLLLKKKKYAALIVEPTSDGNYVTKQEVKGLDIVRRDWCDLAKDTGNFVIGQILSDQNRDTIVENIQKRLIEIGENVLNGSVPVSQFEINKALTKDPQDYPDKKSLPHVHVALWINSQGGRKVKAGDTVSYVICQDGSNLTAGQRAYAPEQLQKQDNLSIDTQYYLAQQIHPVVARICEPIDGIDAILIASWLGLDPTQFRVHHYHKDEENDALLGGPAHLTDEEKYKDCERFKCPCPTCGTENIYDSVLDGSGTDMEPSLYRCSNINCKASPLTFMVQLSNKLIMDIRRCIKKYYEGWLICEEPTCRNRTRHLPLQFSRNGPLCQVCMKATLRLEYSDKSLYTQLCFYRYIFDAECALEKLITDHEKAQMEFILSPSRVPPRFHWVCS
UniProt P11245, whole entry: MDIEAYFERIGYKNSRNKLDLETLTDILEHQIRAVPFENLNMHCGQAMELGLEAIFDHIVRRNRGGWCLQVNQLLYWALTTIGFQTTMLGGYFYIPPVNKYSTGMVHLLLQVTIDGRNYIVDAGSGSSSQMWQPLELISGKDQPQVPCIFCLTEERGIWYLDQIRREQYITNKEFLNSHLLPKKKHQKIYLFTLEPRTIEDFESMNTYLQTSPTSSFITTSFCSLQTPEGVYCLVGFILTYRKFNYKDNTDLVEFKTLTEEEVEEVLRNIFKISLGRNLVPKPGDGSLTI
UniProt Q00959, 23-1464 limits assumed: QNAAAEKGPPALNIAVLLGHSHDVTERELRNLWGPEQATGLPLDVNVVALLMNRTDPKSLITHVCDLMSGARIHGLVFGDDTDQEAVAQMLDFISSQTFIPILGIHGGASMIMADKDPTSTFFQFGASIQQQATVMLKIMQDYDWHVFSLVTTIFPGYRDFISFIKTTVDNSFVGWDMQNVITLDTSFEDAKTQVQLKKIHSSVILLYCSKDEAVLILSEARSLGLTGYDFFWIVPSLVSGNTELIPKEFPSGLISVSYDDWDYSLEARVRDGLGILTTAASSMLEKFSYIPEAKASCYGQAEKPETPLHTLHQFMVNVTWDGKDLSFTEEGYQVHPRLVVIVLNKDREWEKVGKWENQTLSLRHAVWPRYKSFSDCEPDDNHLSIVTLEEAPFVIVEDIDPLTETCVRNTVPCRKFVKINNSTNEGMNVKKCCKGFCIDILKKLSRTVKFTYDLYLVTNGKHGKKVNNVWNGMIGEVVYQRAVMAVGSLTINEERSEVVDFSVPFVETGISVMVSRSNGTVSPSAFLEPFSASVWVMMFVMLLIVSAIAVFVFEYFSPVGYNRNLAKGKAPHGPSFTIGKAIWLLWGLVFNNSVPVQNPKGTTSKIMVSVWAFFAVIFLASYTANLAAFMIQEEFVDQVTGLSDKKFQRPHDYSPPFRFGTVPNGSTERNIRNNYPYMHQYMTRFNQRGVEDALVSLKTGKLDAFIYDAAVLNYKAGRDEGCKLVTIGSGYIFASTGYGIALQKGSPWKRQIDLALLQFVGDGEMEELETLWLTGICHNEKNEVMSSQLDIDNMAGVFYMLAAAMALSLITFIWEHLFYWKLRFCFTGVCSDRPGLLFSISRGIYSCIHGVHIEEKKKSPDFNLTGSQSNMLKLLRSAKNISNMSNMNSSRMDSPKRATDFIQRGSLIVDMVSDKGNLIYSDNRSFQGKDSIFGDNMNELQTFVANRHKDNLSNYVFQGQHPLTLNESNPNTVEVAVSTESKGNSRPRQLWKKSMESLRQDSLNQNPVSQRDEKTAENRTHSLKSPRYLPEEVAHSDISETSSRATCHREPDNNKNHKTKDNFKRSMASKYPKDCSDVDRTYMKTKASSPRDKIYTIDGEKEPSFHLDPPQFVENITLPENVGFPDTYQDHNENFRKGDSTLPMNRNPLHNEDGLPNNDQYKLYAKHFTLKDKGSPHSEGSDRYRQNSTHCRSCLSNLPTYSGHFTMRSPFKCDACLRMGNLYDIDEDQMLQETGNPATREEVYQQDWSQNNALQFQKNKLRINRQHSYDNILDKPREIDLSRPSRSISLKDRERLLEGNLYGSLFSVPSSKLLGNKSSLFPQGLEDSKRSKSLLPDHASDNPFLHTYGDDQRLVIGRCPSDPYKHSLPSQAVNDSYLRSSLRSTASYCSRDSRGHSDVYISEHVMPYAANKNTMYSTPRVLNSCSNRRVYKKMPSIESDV
UniProt P51570, whole entry: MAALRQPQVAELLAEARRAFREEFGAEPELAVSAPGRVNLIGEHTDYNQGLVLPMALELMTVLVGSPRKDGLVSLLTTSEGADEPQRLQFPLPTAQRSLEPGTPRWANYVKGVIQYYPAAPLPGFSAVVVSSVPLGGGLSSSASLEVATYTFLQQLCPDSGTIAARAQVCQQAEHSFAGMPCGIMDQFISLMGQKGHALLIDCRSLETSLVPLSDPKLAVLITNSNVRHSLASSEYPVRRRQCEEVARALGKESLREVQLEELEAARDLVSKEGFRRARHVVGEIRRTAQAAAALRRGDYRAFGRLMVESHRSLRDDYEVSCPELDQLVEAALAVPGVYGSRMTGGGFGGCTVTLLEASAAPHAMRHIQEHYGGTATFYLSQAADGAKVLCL
UniProt Q00960, 27-1482 limits assumed: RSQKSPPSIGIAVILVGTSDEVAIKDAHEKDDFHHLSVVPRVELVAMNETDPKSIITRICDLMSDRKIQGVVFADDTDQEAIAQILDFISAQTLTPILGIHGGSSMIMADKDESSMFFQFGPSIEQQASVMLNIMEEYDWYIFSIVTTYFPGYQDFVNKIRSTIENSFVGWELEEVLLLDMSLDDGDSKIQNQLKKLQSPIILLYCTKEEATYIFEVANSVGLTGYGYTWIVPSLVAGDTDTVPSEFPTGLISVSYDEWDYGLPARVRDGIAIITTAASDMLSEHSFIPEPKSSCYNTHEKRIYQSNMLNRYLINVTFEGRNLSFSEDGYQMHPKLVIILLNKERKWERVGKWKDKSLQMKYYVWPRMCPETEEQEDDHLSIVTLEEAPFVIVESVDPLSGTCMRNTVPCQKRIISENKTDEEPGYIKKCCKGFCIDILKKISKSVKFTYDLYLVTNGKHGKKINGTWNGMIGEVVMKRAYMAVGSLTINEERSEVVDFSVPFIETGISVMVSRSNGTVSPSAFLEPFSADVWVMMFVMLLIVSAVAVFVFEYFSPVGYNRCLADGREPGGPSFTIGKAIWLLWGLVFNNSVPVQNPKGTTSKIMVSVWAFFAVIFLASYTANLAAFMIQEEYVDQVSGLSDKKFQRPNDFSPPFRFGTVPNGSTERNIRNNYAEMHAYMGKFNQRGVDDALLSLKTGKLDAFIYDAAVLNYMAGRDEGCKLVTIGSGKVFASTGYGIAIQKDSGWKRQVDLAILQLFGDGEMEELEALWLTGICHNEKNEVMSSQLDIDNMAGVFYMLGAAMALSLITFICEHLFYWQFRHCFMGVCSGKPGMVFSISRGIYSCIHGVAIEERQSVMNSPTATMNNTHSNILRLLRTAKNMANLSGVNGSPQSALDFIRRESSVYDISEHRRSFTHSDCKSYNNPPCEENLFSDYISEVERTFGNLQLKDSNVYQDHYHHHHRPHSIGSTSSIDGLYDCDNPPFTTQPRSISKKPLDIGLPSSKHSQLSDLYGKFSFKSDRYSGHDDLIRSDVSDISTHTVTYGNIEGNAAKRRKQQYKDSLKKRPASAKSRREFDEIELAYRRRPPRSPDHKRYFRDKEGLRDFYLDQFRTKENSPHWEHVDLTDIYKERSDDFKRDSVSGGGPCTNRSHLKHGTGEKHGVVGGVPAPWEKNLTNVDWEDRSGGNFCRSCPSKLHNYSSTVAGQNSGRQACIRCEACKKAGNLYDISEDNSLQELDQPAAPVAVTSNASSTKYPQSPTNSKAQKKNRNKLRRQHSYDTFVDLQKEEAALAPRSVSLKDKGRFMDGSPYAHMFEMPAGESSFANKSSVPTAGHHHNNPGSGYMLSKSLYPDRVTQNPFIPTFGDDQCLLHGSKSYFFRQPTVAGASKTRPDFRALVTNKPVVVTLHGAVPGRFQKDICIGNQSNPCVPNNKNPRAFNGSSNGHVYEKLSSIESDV
UniProt P18440, whole entry: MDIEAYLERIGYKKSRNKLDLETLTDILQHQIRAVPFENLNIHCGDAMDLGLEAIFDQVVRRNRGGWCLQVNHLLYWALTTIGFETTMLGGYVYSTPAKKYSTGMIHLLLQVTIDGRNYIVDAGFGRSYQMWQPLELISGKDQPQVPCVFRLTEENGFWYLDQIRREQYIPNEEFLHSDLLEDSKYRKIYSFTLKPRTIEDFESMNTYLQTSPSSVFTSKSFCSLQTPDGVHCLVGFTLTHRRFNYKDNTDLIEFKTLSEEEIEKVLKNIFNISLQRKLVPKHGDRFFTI

For `CC/C=C\C/C=C\CCC/C=C/C=C/C=C\CCCC(=O)O`, the IC50 was 14.5 ± 0.9 µM (DNA polymerase (POLA1, Bos taurus, UniProt A0AAA9TD94); enzyme activity, inhibitor; calf polymerase alpha).
With `Cc1ccc(-c2n[nH]cc2-c2ccnc3ccccc23)nc1` the IC50 was 17.5 µM (MAPK14; kinase activity, inhibitor, ADP-Glo; with: ATP 80 µM).
`COc1cc(O)c([C@@H](CCc2ccc(O)cc2OC)c2ccc(O)cc2)cc1CCC(=O)c1ccc(O)cc1` gave an IC50 of 0.59 µM (ALOX5; enzyme activity; cell-free).
With `CCN(CC)CCCC(C)Nc1cc(-c2ccccc2)nc2cc(OC)ccc12` (stereo not shown) the IC50 was 0.55 ± 0.05 µM (NQO2; enzyme activity, inhibitor; no BSA, with: 200 µM NRH, DCPIP).
The IC50 of `COc1cc(O)ccc1C(=O)C=Cc1ccc(O)cc1` is reported as 6.5 ± 0.4 µM (ALOX5; 5-LOX product formation, RP-HPLC; human PMNL; with: A23187 and arachidonic acid).
`CCOC(=O)CCC(=O)Oc1cccc2c1C(=O)c1c(O)cccc1C2=O` has an IC50 of greater than 2000 µM (Arylamine N-acetyltransferase 2 (NAT2, Homo sapiens, UniProt P11245); enzyme activity, inhibitor; recombinant in yeast lysate; with: 10 µM sulfamethazine and 100 µM acetyl-CoA).
`CN1C(=O)CCc2cc(CNC(C)(C)[C@@H](O)c3ccccc3)ccc21` has a half-life of 27.8 min (CD-1 mouse, male, plasma; subcutaneous, 10 mg/kg).
`CC(C)CC(NC(=O)C(Cc1ccccc1)NC(=O)c1cnc(C(=O)NC(Cc2ccccc2)C(=O)NC(CC(C)C)B(O)O)cn1)B(O)O` (stereo not shown) has an IC50 of 0.0134 ± 0.00056 µM (Proteasome subunit beta type-6 (PSMB6, Homo sapiens, UniProt P28072); caspase-like activity, inhibitor, Proteasome-Glo; U-266; 24 h).
`N#Cc1c(-c2ccc(Cl)cc2Cl)n(-c2nc(-c3ccc(Cl)cc3)c3c(NC(=O)c4ccccc4)nnc-3[nH]2)[nH]c1=O` — result for “mean cell growth”: 13.4% (NCI60 panel; SRB; 10 µM).
`CN(C)CCNC(=O)c1cc([N+](=O)[O-])cc2ccc(-c3ccccc3)nc12` has an IC50 of 0.04 µM (NQO2; enzyme activity, inhibitor).
The IC50 of `CON(C1CC[C@@]2(C)[C@H](CC[C@@H]3[C@@H]2CC[C@]2(C)[C@@H](c4ccc(=O)oc4)CC[C@]32O)C1)C1OCC(O)C(O)C1O` (stereo partly shown) is reported as ~0.05 µM and 0.047 µM (Sodium/potassium-transporting ATPase subunit alpha-1 (atp1a1, Xenopus laevis, UniProt Q92123); Na+/K+ pump current, inhibitor, two-electrode voltage clamp, refers to: endogenous pump current; uninjected Xenopus laevis oocytes; holding potential -60 mV).
Under “time to proliferation rebound”, `C=C(C)C(=O)Nc1ccc(-c2c(-c3ccc(Oc4nccc(C)n4)c(F)c3)c3c(N)ncnc3n2C)cc1` is recorded as roughly 34 days (MFM-223; cell proliferation, live-cell imaging (IncuCyte); concentration not given, single agent, from treatment start).
With `NC12CC3CC(F)(CC(C1)c1ccccc13)C2` the IC50 was 4.4 ± 0.15 µM (Glutamate NMDA receptor; Grin1/Grin2a (Grin1/Grin2a, Rattus norvegicus, UniProt P35439+Q00959); ion current, channel blocker, whole-cell patch clamp; tsA201 cells; 0 mM Mg2+, -65 mV, with: 1 mM glutamate).
`Cc1ccc(S(=O)(=O)Nc2ccccc2C(=O)Nc2nc(-c3ccccc3)cs2)cc1` has an IC50 of 3.5 µM (Galactokinase (GALK1, Homo sapiens, UniProt P51570); enzyme activity, inhibitor, Kinase-Glo luminescence; with: ATP 35 µM, galactose 100 µM).
For `CC(C)C[C@H](NC(=O)[C@H](C)NC(=O)[C@H](CCCNC(=N)N)NC(=O)[C@H](CCCNC(=N)N)NC(=O)[C@H](CCCNC(=N)N)NC(=O)[C@H](C)NC(=O)[C@H](CC(C)C)NC(=O)[C@H](CCCNC(=N)N)NC(=O)[C@H](CO)NC(=O)[C@H](CCCCN)NC(=O)[C@H](CO)NC(=O)Cn1cc(COC(=O)[C@]2(C)C=C(C(=O)OC(C)(C)C)C(=O)CC2)nn1)C(=O)O`, the remaining activity was 0.999 and 0.892 and 0.943 (MAPK14; enzyme activity, inhibitor, D-SENSOR kinase; 0.003387 µM, unit not given; baseline: untreated).
`CCOC(=O)c1c(-c2ccc(Cl)cc2Cl)n(-c2nc(-c3ccc(Cl)cc3)c3c(NC(=O)c4ccccc4)nnc-3[nH]2)[nH]c1=O`: “mean cell growth” 2.3% (NCI60 panel; SRB; 10 µM).
With `CC(C)N(CCc1ccc(Cl)c(Cl)c1)C[C@H](O)COc1ccc(NS(C)(=O)=O)cc1` the IC50 was 0.62 µM (Glutamate NMDA receptor; Grin1/Grin2b (Grin1/Grin2b, Rattus norvegicus, UniProt P35439+Q00960); pH 7.6).
With `CCOC(=O)Oc1ccc2c(c1OC(=O)OCC)C(=O)c1ccccc1C2=O` the IC50 was 1.03 ± 0.24 µM (Arylamine N-acetyltransferase 1 (NAT1, Homo sapiens, UniProt P18440); O-acetyltransferase activity, inhibitor; MDA-MB-231 cell lysate; with: 100 µM N-hydroxy-4-aminobiphenyl and 1 mM acetyl-CoA).
The kcat of `CC(C)C[C@H](NC(=O)[C@@H](NC(=O)[C@H](CC(C)C)NC(=O)[C@H](CS)NC(=O)CNS(=O)(=O)c1cccc2c(N(C)C)cccc12)C(C)C)C(=O)O` is reported as 0.049 ± 0.016 s⁻¹ (geranylgeranyltransferase type-I (Rattus norvegicus, UniProt P53610+Q04631); substrate, fluorescence; 30 °C, GGPP 10 µM/enzyme 10 nM, with: SmgGDS-607 5 µM/GTP 30 µM).

Excerpt of the above:
`CN1C(=O)CCc2cc(CNC(C)(C)[C@@H](O)c3ccccc3)ccc21` has a half-life of 27.8 min (CD-1 mouse, male, plasma; subcutaneous, 10 mg/kg).
`CC(C)CC(NC(=O)C(Cc1ccccc1)NC(=O)c1cnc(C(=O)NC(Cc2ccccc2)C(=O)NC(CC(C)C)B(O)O)cn1)B(O)O` (stereo not shown) has an IC50 of 0.0134 ± 0.00056 µM (Proteasome subunit beta type-6 (PSMB6, Homo sapiens, UniProt P28072); caspase-like activity, inhibitor, Proteasome-Glo; U-266; 24 h).
